# Assay results from different studies.
# Lines come from different studies, so protocols differ. Values joined by “and” are separate records of one study, mostly repeats; a detail may differ. Numbers after ± are the reported error.
Compound,target or system,assay,test system,setting,how to read,quantity,result
CN1CCC[C@]1(C)/C=C/S(=O)(=O)NC(=O)Nc1c2c(cc3c1CCC3)CCC2,,,"human, whole blood ex vivo","400 mg single dose, 12 h, single ascending dose, together with: LPS and ATP",,IL-1β inhibition,99.3%
Cc1ccc(N(O)/N=N/c2ccc(S(=O)(=O)Nc3nccs3)cc2)cc1,,ABTS scavenging,,60 µg/mL,,inhibition,49.8%
C[C@@H]1Cc2c([nH]c3ccccc23)[C@@H](c2c(F)cc(/C=C/C(=O)O)cc2F)N1C12CC(C1)C2,,"immunohistochemistry, item: progesterone receptor","human patients, PR-positive tumours, tumour biopsy","day 21, paired biopsies, average",direction not given,H-score,170
C=CC(=O)Nc1cccc(Cn2ncc3cnc(Nc4cnn(CCOC)c4)nc32)c1,PAK2 human,"binding, KINOMEscan",,100 nM,lower = stronger binding,percent of control,83%
Nc1ncc(-c2cc(-c3cnn(CC(F)(F)F)c3)ncc2F)nc1C(=O)NC1CNCC(F)C1 (stereo not drawn),PKN1,KINOMEscan,,1 µM,relative to: DMSO control,remaining binding,100%
Nc1nc2cc(CC[C@H]3C[C@@H](n4ccc5c(N)ncnc54)[C@H](O)[C@@H]3O)ccc2cc1Br,,,"NCI-H441 xenograft, mouse","3.0 mg/kg/day, day 38",,%ΔTGI,118%
COc1ccc(C(=O)CCc2cc(C(CCc3ccc(O)cc3OC)c3ccc(O)cc3)c(O)cc2OC)cc1 (racemic),,,human blood,"1 µM, together with: A23187",,TXB2 level,984 ± 397 pg/mL
COCC1CN(C2CCN(c3cc(OC)c(Nc4ncc(Br)c(Nc5ccc6c(c5P(C)(C)=O)OCCO6)n4)cc3C)CC2)C1,,RECIST 1.1,advanced EGFR-mutant NSCLC patients,90 mg once daily,,disease control rate,0%
COC1CN([C@H]2CC[C@H]([C@@]3(C)Oc4c(Cl)cc(C(=O)NCc5c(SC)cc(C)[nH]c5=O)c(C)c4O3)CC2)C1,,"RNA-seq, item: PLVAP","human, whole blood","dose not given, 24 h",relative to: pretreatment baseline,log2 fold change,5.03
COC1OC(C)C(OS(=O)(=O)O)C(OC2OC(C)C(OS(=O)(=O)O)C(OC3OC(C)C(OS(=O)(=O)O)C(OC4OC(C)C(OS(=O)(=O)O)C(OC5OC(C)C(OS(=O)(=O)O)C(OC6OC(C)C(OS(=O)(=O)O)C(OC7OC(C)C(OS(=O)(=O)O)C(OC8OC(C)C(OS(=O)(=O)O)C(OC9OC(C)C(OS(=O)(=O)O)C(OC%10OC(C)C(OS(=O)(=O)O)C(OS(=O)(=O)O)C%10OS(=O)(=O)O)C9OS(=O)(=O)O)C8OS(=O)(=O)O)C7OS(=O)(=O)O)C6OS(=O)(=O)O)C5OS(=O)(=O)O)C4OS(=O)(=O)O)C3OS(=O)(=O)O)C2OS(=O)(=O)O)C1OS(=O)(=O)O (stereo not drawn),,,human plasma,16 µg/mL,,activated partial thromboplastin time,74.1 s and 73.8 s and 74.2 s
CN1CCCNC(=O)c2cccc(c2)C(=O)NCCCN(C)CCCNc2cccc3c2C(=O)c2cccc(c2C3=O)NCCC1,SAS,"RNA-Seq, item: POLG mRNA",,"1 µM, 6 h",relative to: untreated cells,log2 fold change,-0.717
COC1OC(C)C(OC2OC(C)C(O)C(OC3OC(C)C(OC4OC(C)C(O)C(OC5OC(C)C(OC6OC(C)C(O)C(OC7OC(C)C(O)C(OS(=O)(=O)O)C7OS(=O)(=O)O)C6OS(=O)(=O)O)C(OS(=O)(=O)O)C5OS(=O)(=O)O)C4OS(=O)(=O)O)C(OS(=O)(=O)O)C3OS(=O)(=O)O)C2OS(=O)(=O)O)C(OS(=O)(=O)O)C1OS(=O)(=O)O (stereo not drawn),,,human plasma,16 µg/mL,,activated partial thromboplastin time,44.3 s and 44.4 s and 45.8 s
CNS(=O)(=O)Nc1nccc(Cc2c(C)c3ccc(Oc4ncccc4F)cc3oc2=O)c1F,OCI-LY19,cell viability,,7 days,,IC50,5.61 nM
COC1OC(C)C(O)C(OC2OC(C)C(O)C(OC3OC(C)C(O)C(OC4OC(C)C(O)C(OC5OC(C)C(O)C(OC6OC(C)C(O)C(OC7OC(C)C(O)C(OC8OC(C)C(O)C(OC9OC(C)C(O)C(OC%10OC(C)C(O)C(OC%11OC(C)C(O)C(OC%12OC(C)C(O)C(OS(=O)(=O)O)C%12OS(=O)(=O)O)C%11OS(=O)(=O)O)C%10OS(=O)(=O)O)C9OS(=O)(=O)O)C8OS(=O)(=O)O)C7OS(=O)(=O)O)C6OS(=O)(=O)O)C5OS(=O)(=O)O)C4OS(=O)(=O)O)C3OS(=O)(=O)O)C2OS(=O)(=O)O)C1OS(=O)(=O)O (stereo not drawn),,,human plasma,128 µg/mL,,activated partial thromboplastin time,42.6 ± 0.3 s
Cc1ncsc1-c1ccc(C(C)NC(=O)C2CC(O)CN2C(=O)C(NC(=O)CCCCCCCCCCN2CCCC(Nc3ncc(Cl)c(Nc4ccccc4S(=O)(=O)C(C)C)n3)C2)C(C)(C)C)cc1 (stereo not drawn),22Rv1,"RNA-seq, item: TSTD2 mRNA",,concentration not given,relative to: DMSO,log2 fold change,-1.3

# A few entries again:
Compound,target or system,assay,test system,setting,how to read,quantity,result
CN1CCC[C@]1(C)/C=C/S(=O)(=O)NC(=O)Nc1c2c(cc3c1CCC3)CCC2,,,"human, whole blood ex vivo","400 mg single dose, 12 h, single ascending dose, together with: LPS and ATP",,IL-1β inhibition,99.3%
